Earlier results, collected from citations in different studies.
Protocols differ between the studies behind these lines. Numbers after ± are the reported error.

C[C@]12CC[C@H](OS(=O)(=O)O)CC1=CC[C@@H]1[C@@H]2CC[C@]2(C)C(c3ccc[n+]([O-])c3)=CC[C@@H]12
unbound fraction (human, plasma): 0.22%

CCC(=O)NS(=O)(=O)c1ccc(-c2c(-c3ccccc3)noc2C)cc1
incidence of cardiovascular events (patients after cardiac surgery; intravenous, dose not given, up to 10 days): 2%

C[C@@H]1CCO[C@H]2Cn3cc(C(=O)NCc4ccc(F)cc4F)c(=O)c(O)c3C(=O)N12
trough concentration ratio (Japanese HIV patients; dose not given; baseline: UGT1A1*6 homozygous over wild type): ~1.7 fold

CCN(CCO)CCCC(C)Nc1ccnc2cc(Cl)ccc12 (stereo not shown)
average blood concentration (rheumatoid arthritis patients, whole blood; 400 mg daily): 2.8 µM

CC(=O)Nc1ccc(O)cc1
Cmax (plasma; concentration not given): 130 µM

COC(=O)c1ccc2c(c1)NC(=O)/C2=C(\Nc1ccc(N(C)C(=O)CN2CCN(C)CC2)cc1)c1ccccc1
exposure (humans with mild hepatic impairment; concentration not given; baseline: normal hepatic function): ≤ 1.4 fold

Nc1ncnc2c1nc(Br)n2[C@@H]1O[C@@H]2COP(=O)(O)O[C@H]2[C@H]1O
log Kw (methanol/water): 1.35

CC[C@H](C)CCCCC(=O)N[C@@H](CCN)C(=O)N[C@H](C(=O)N[C@@H](CCN)C(=O)N[C@H]1CCNC(=O)[C@H]([C@@H](C)O)NC(=O)[C@H](CCN)NC(=O)[C@H](CCN)NC(=O)[C@H](CC(C)C)NC(=O)[C@@H](Cc2ccccc2)NC(=O)[C@H](CCN)NC1=O)[C@@H](C)O
volume of distribution (human patients; intravenous, dose not given, population PK model): 34.3 L

CC/C(=C(\c1ccccc1)c1ccc(OCCN(C)C)cc1)c1ccccc1
Cmax (plasma; concentration not given): 0.4 µM

O=C(Nc1ccc(OC(F)(F)Cl)cc1)c1cnc(N2CC[C@@H](O)C2)c(-c2ccn[nH]2)c1
discontinuation for adverse events (human, CML-CP with T315I; 200 mg twice daily, median 2 years): 8.3%

COc1cc(C[C@H]2C(=O)OC[C@@H]2Cc2ccc(OC)c(OC)c2)ccc1O
Cmax increase (diabetic rats; oral, dose not given; baseline: normal rats): 357%

C[C@@H]1CCN(C(=O)CC#N)C[C@@H]1N(C)c1ncnc2[nH]ccc12
oral bioavailability (healthy human volunteers; oral, 10 mg): ~74%

VVIA
solubility (filtration; peptide, sodium phosphate buffer; pH 7.4): 140 ± 30 µM

C[C@@H](N)c1cc(Cl)ccc1Cn1c(=S)[nH]c(=O)c2[nH]ccc21
exposure ratio (human, severe renal impairment; baseline: matched normal renal function): ~2 fold

O=C(N[C@@H]1CC[C@@H](c2cccc(F)c2F)CN(CC(F)(F)F)C1=O)N1CCC(n2c(=O)[nH]c3ncccc32)CC1
incidence of ALT elevation (item: ALT above 3-fold ULN; patients; up to 280 mg twice daily, 2 weeks or more): increased

O=C(O)CNC(=O)c1ccccc1[131I]
percent injected dose (normal rat, heart; 10 min, added: co-injected 99mTc-1): 0.2 ± 0.1 %ID

Sc1ncnc2nc[nH]c12
logP (octanol-water): 0.01

O=C(O)CCCC[C@@H]1SC[C@@H]2NC(=O)N[C@@H]21
Cmax (plasma; concentration not given): < 1 µM

C=C1/C(=C\C=C2/CCC[C@]3(C)[C@@H]([C@H](C)CC(=O)O)CC[C@@H]23)C[C@@H](O)C[C@@H]1O
blood concentration (LC-MS/MS; mouse, blood; below detection limit): < 0.006 µM

CO[C@H]1C[C@@H]2CC[C@@H](C)[C@@](O)(O2)C(=O)C(=O)N2CCCC[C@H]2C(=O)O[C@H]([C@H](C)C[C@@H]2CC[C@@H](O)[C@H](OC)C2)CC(=O)[C@H](C)/C=C(\C)[C@@H](O)[C@@H](OC)C(=O)[C@H](C)C[C@H](C)/C=C/C=C/C=C/1C
terminal half-life (kidney transplant recipients; calcineurin inhibitor-free protocol): 12.6 h

CCC(C)C(CC)C(N)=O (stereo not shown)
exposure margin (rat, plasma; modest teratogenic signal, unit not given; baseline: over suggested therapeutic plasma level): 15

Clc1ccc(COC(Cn2ccnc2)c2ccc(Cl)cc2Cl)cc1 (stereo not shown)
Cmax (plasma; concentration not given): 540 µM

Cc1ccccc1-c1cc(N2CCN(C)CC2)ncc1N(C)C(=O)C(C)(C)c1cc(C(F)(F)F)cc(C(F)(F)F)c1
Vz/F (patients, plasma; oral, dose not given, netupitant-palonosetron combination, added: docetaxel 75 to 100 mg/m^2 IV): 1860 L

N[C@@H](CC(=O)N1CCn2c(nnc2C(F)(F)F)C1)Cc1cc(F)c(F)cc1F
AUC(0-inf) (healthy male humans; dose not given, added: cyclosporine; baseline: without cyclosporine): increased

CCCS(=O)(=O)Nc1ccc(F)c(C(=O)c2c[nH]c3ncc(-c4ccc(Cl)cc4)cc23)c1F
parent drug share of radioactivity (human patients, serum; dose not given, up to 48 h, radiolabelled dose): 95%

CC[C@@H]1CN(C(=O)NCC(F)(F)F)C[C@@H]1c1cnc2cnc3[nH]ccc3n12
AUC increase (population pharmacokinetics; rheumatoid arthritis patients, mild renal impairment; dose not given; baseline: normal renal function): 16%

OC(Cn1cncn1)(Cn1cncn1)c1ccc(F)cc1F
aqueous solubility (water; hydrate): 0.55 log mg/mL

O=C1c2cccc3c2[C@H](CCC3)CN1[C@@H]1CN2CCC1CC2
AUC(0-inf) (healthy volunteers; oral, 0.75 mg single dose, mean, added: netupitant 450 mg): 77.3 ng ⋅ h/mL

C#Cc1cccc(Nc2ncnc3cc(OCCOC)c(OCCOC)cc23)c1
Cmin (item: parent compound; human patients, plasma; oral, 150 mg once daily, day 28): 1470 ± 877 ng/mL

COc1ccc2c(O[C@@H]3C[C@H]4C(=O)N[C@]5(C(=O)NS(=O)(=O)C6CC6)C[C@H]5/C=C\CCCCN(C)C(=O)[C@@H]4C3)cc(-c3nc(C(C)C)cs3)nc2c1C
grade 3-4 adverse events (HCV genotype 1 patients; dose not given, added: sofosbuvir): < 5%

Cc1nc2cccc(OCC(C)(C)C(=O)NC(C)C)c2c(N)c1C(=O)[O-].[Na+]
AUC(0-t) (rat, male, plasma; oral gavage, 30 mg/kg, molecular weight corrected; baseline: parent drug): 89.4%

CC[C@@H](C)[C@@H](NC(=O)[C@@H](CCCCN)NC(=O)[C@@H](CCCCN)NC(=O)[C@@H](Cc1ccccc1)NC(=O)[C@@H](CC(C)C)NC(=O)[C@@H](CCCCN)NC(=O)[C@H](N)CCCCN)C(=O)N[C@H](CC(C)C)C(=O)N[C@@H](CCCCN)C(=O)N[C@@H](Cc1ccc(O)cc1)C(=O)N[C@@H](CC(C)C)C(N)=O
hemolysis (horse erythrocytes 5 % v/v; 150 µM): 0%

O=C(O)c1cc(-c2ccc(F)cc2F)ccc1O
Cmax (plasma; concentration not given): 495 µM

Cc1cc2c(s1)Nc1ccccc1N=C2N1CCN(C)CC1
increase in Cmax (healthy male smokers; dose not given, added: fluvoxamine): 84%

COc1cccc(-c2c(C)n(Cc3c(F)cccc3C(F)(F)F)c(=O)n(C[C@H](NCCCC(=O)O)c3ccccc3)c2=O)c1F
Cmax ratio (human, Child-Pugh C hepatic impairment; 150 mg single dose, mean observed; baseline: patients over healthy volunteers): 6.2

Cc1cnc(NC(=O)C2=C(O)c3ccccc3S(=O)(=O)N2C)s1
Km (bioactivation, substrate; human liver microsomes): 26 µM

CN(C)C(=O)c1cc2cnc(Nc3ccc(N4CCNCC4)cn3)nc2n1C1CCCC1
unbound concentration (recurrent glioblastoma patients, MRI-non-enhancing tumour; oral, 900 mg/day, 5 days): 0.56 nmol/g

A few entries again:
CCN(CCO)CCCC(C)Nc1ccnc2cc(Cl)ccc12 (stereo not shown)
average blood concentration (rheumatoid arthritis patients, whole blood; 400 mg daily): 2.8 µM

COc1ccc2c(O[C@@H]3C[C@H]4C(=O)N[C@]5(C(=O)NS(=O)(=O)C6CC6)C[C@H]5/C=C\CCCCN(C)C(=O)[C@@H]4C3)cc(-c3nc(C(C)C)cs3)nc2c1C
grade 3-4 adverse events (HCV genotype 1 patients; dose not given, added: sofosbuvir): < 5%

CC[C@@H](C)[C@@H](NC(=O)[C@@H](CCCCN)NC(=O)[C@@H](CCCCN)NC(=O)[C@@H](Cc1ccccc1)NC(=O)[C@@H](CC(C)C)NC(=O)[C@@H](CCCCN)NC(=O)[C@H](N)CCCCN)C(=O)N[C@H](CC(C)C)C(=O)N[C@@H](CCCCN)C(=O)N[C@@H](Cc1ccc(O)cc1)C(=O)N[C@@H](CC(C)C)C(N)=O
hemolysis (horse erythrocytes 5 % v/v; 150 µM): 0%

C[C@@H]1CCO[C@H]2Cn3cc(C(=O)NCc4ccc(F)cc4F)c(=O)c(O)c3C(=O)N12
trough concentration ratio (Japanese HIV patients; dose not given; baseline: UGT1A1*6 homozygous over wild type): ~1.7 fold

CCC(=O)NS(=O)(=O)c1ccc(-c2c(-c3ccccc3)noc2C)cc1
incidence of cardiovascular events (patients after cardiac surgery; intravenous, dose not given, up to 10 days): 2%

COc1cccc(-c2c(C)n(Cc3c(F)cccc3C(F)(F)F)c(=O)n(C[C@H](NCCCC(=O)O)c3ccccc3)c2=O)c1F
Cmax ratio (human, Child-Pugh C hepatic impairment; 150 mg single dose, mean observed; baseline: patients over healthy volunteers): 6.2
